Assay results from different studies.
Each line is one published result; not all experiments were run side by side. “And” joins repeats or separate records; there may be more than shown. Numbers after ± are the reported error.
Kir3.1/Kir3.4: Kir3.1/Kir3.4 (Homo sapiens, UniProt P48544+P48549)
pyrD: Dihydroorotate dehydrogenase (quinone) (pyrD, Acinetobacter baumannii, UniProt B7GZW7)
GUK1: GUK1 (Homo sapiens, UniProt Q16774)
T1: RNA aptamer; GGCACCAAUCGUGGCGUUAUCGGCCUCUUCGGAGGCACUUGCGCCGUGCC
T2: ssDNA, aptamer; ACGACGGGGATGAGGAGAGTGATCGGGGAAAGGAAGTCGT
T3: riboswitch RNA C63G (Bacillus); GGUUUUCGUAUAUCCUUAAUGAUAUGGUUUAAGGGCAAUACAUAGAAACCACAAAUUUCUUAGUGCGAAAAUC

| SMILES | target or system | test | test system | conditions | how to read | measurement | result |
| --- | --- | --- | --- | --- | --- | --- | --- |
| CC(=C/C(=O)O)/C=C/C=C(\C)C1C=C2C(C)(C)CCCC2(C)O1 (centres unmarked) | Rhodopsin (RHO, Homo sapiens, UniProt P08100, T17M) | immunostaining, measured: opsin | COS-7 transfected | 5.00 µM, unit not given | baseline: surface over total stained cells | plasma membrane localization | 0.42 |
| CC(=O)Nc1ccc(O)cc1 | BRD4 (Homo sapiens, UniProt O60885) | 19F NMR, measured: tyrosine 118 | – | 48 µM | baseline: free protein | chemical shift change | -0.015 ppm |
| CN(C)C(=O)C(CCN1CCC(O)(c2ccc(Cl)cc2)CC1)(c1ccccc1)c1ccccc1 | Calcium-activated potassium channel subunit alpha-1, with LRRC26 γ1 subunit (KCNMA1, Homo sapiens, UniProt Q12791) | BK current, inside-out patch clamp | excised membrane patch | 0.1 µM, γ1 coexpressed, individual fits, added: nominally 0 Ca2+ cytosolic | – | effective gating valence | 1.23 ± 0.12 elementary charges |
| O=C(COP(=O)(O)O)[C@@H](O)[C@H](O)[C@H](O)COP(=O)(O)O | 26S proteasome non-ATPase regulatory subunit 6 (Homo sapiens, UniProt Q15008) | thermal proteome profiling, measured: PSMD6 | HepG2 cell lysate | concentration not given, 57 over 37 °C | baseline: compound over control | thermal stability ratio | 0.423 and 0.684 and 0.552 |
| Nc1ncnc2c1ncn2[C@@H]1O[C@H](COP(=O)(O)CP(=O)(O)OP(=O)(O)O)[C@@H](O)[C@H]1O | P2X purinoceptor 1 (P2RX1, Homo sapiens, UniProt P51575) | saturation binding | HEK293 | 25 nM | – | specific binding | 2070 CCPM and 5180 CCPM and 5010 CCPM and 4820 CCPM and 3210 CCPM |
| O=C(COc1ccc(Cl)cc1Cl)Nc1cc(C2CCC2)nn1CC(F)(F)F | Kir3.1/Kir3.4 | activator, thallium flux | HEK293 | concentration not given | – | activity | inactive |
| CC[C@H](C)[C@@H]1NC(=O)[C@H](C)NC(=O)[C@H]([C@@H](C)CC)NC(=O)[C@H](CCC(N)=O)NC(=O)[C@H](C)NC(=O)[C@H](CCCNC(=N)N)NC(=O)[C@H](C(C)C)NC(=O)[C@H](CC(C)C)NC(=O)[C@H](CCC(=O)O)NC(=O)[C@H](CCCNC(=N)N)NC(=O)CNC(=O)[C@@H](NC(=O)[C@H](CC(C)C)NC(=O)[C@H](CCCCN)NC(=O)[C@@H](NC(=O)[C@@H](NC(=O)[C@H](CCC(=O)O)NC(=O)[C@H](CCC(=O)O)NC(=O)[C@H](CCSC)NC(=O)[C@H](Cc2c[nH]c3ccccc23)NC(=O)[C@H](CO)NC(=O)[C@@H](N)CC(=O)O)C(C)C)[C@@H](C)CC)CSSC[C@@H]2NC(=O)[C@@H](NC(=O)[C@H](CCCCN)NC(=O)[C@H](CC(N)=O)NC(=O)[C@H](C)NC(=O)[C@H](CC(C)C)NC(=O)[C@H](C)NC(=O)[C@H](CO)NC(=O)[C@H](Cc3ccc(O)cc3)NC(=O)[C@H](CC(C)C)NC(=O)[C@H](CCC(N)=O)NC(=O)c3ccc(-c4c5ccc(=[N+](C)C)cc-5oc5cc(N(C)C)ccc45)c(C(=O)[O-])c3)CSSC[C@H](NC(=O)CNC(=O)[C@H](C(C)C)NC(=O)[C@H](Cc3c[nH]cn3)NC2=O)C(=O)N[C@@H]([C@@H](C)O)C(=O)N[C@@H](CCCCN)C(=O)N[C@@H](CCCNC(=N)N)C(=O)N[C@@H](CO)C(=O)N[C@@H](CC(C)C)C(=O)N[C@@H](C)C(=O)N[C@@H](CCCNC(=N)N)C(=O)N[C@@H](Cc2ccccc2)C(=O)N[C@H](C(=O)O)CSSC[C@@H](C(=O)NCC(=O)N[C@@H](CCSC)C(=O)N[C@@H](CO)C(=O)N[C@H](C(=O)N[C@@H](Cc2c[nH]c3ccccc23)C(=O)N[C@@H](CO)C(=O)O)[C@@H](C)O)NC1=O | Relaxin receptor 1 (RXFP1, Homo sapiens, UniProt Q9HBX9) | binding, NanoBRET | – | added: relaxin 10 µM | – | dissociation plateau | 17.9% |
| CCc1cc(NC(=O)COc2cc(Cl)ccc2Cl)n(C2CCC(F)(F)CC2)n1 | Kir3.1/Kir3.4 | thallium flux, activator | HEK293 | – | baseline: standard compound | Emax | 67% |
| Cc1cc(NC2CCc3ccc(Br)cc3C2)n2nc(C(C)(F)F)nc2n1 (centres unmarked) | pyrD | enzyme activity, inhibitor, colorimetric HTS, measured: DCIP reduction | – | 3 µM | direction not given | robust Z-score | 17.6 |
| Cn1cc(C(=O)Nc2cccc(C(=O)O)c2)ccc1=O | CREB-binding protein, bromodomain (CREBBP, Homo sapiens, UniProt Q92793) | binding | – | – | – | ligand efficiency | 0.37 |
| Nc1nc2c(ncn2[C@@H]2O[C@H](COP(=O)(O)O)[C@@H](O)[C@H]2O)c(=O)[nH]1 | GUK1 | enzyme activity, NADH-coupled | – | 1000 µM, added: NaCl 10 mM | – | reaction velocity | 0.0872 µM/s and 0.0876 µM/s and 0.0993 µM/s |
| O=C(CN1C(=O)S/C(=C\c2ccc([N+](=O)[O-])cc2)C1=O)c1ccc([N+](=O)[O-])cc1 | AKR1B1 (Homo sapiens, UniProt P15121) | enzyme activity, inhibitor | – | – | – | log IC50 | 2.36 log nM |
| CN(CCO)c1ccc(/C=C(\C#N)c2ccc(C#N)cc2)cc1 | T1, RNA aptamer | fluorescence titration, Hill fit | – | apparent | – | Kd | 1340 nM |
| COc1cc(-c2cc(C(C)=O)n3ccccc23)c(OC)cc1Cn1ccnc1 | CREBBP (Homo sapiens, UniProt Q92793) | – | – | – | – | ΔTm | 5.5 °C |
| O=C(COc1ccc(Cl)cc1Cl)Nc1cc(C2CC2)nn1C1CCC(F)(F)CC1 | Kir3.1/Kir3.4 | thallium flux, activator | HEK293 | – | baseline: standard compound | Emax | 46% |
| Nc1ncnc2c1ncn2[C@@H]1O[C@H](COP(=O)(O)OP(=O)(O)OP(=O)(O)O)[C@@H](O)[C@H]1O | T2, ssDNA, aptamer | ITC | – | – | – | Kd | 1000 nM |
| O=C(O)C1CCCNC1 (centres unmarked) | SLC6A6 (Homo sapiens, UniProt P31641, Y138A) | binding, microscale thermophoresis | – | 31.3 µM, room temperature, added: 50 nM labelled protein | higher = more binding | normalised MST signal | 0.572 |
| C[S+](CC[C@H](N)C(=O)[O-])C[C@H]1O[C@@H](n2cnc3c(N)ncnc32)[C@H](O)[C@@H]1O (some centres unmarked) | KMT2C (Homo sapiens, UniProt Q8NEZ4) | substrate, enzyme-coupled methylation | – | added: H3 peptide 50 µM | – | apparent Vmax | 0.4 ± 0.04 µM/min |
| NC/C(=C\F)COc1cccc(Cn2c(=S)[nH]c(=O)c3[nH]cnc32)c1 | Amine oxidase [copper-containing] 3 (Rattus norvegicus, UniProt O08590) | – | rat adipose tissue | 3 µM | – | inhibition | 108% |

| SMILES | target or system | test | test system | conditions | how to read | measurement | result |
| --- | --- | --- | --- | --- | --- | --- | --- |
| CC(=O)N[C@H]1[C@@H](OP(=O)(O)OP(=O)(O)OC[C@H]2O[C@@H](n3ccc(=O)[nH]c3=O)[C@H](O)[C@@H]2O)O[C@H](CO)[C@@H](O)[C@@H]1O | – | binding, MIDAS equilibrium dialysis LC-MS | A2AR-BRIL thermostabilized | concentration not given | baseline: no-protein control | log2 fold change | -0.191 |
| Cc1cc(Nc2ccc3c(c2)CCCC3)n2ccnc2n1 | pyrD | enzyme activity, inhibitor, colorimetric HTS, measured: DCIP reduction | – | 3 µM | direction not given | robust Z-score | 24.7 |
| C=CC(=O)N1CCC(COCC(=O)N2CCN(c3nc(-c4cnc(N)nc4C(F)F)nc(N4CCOC[C@@H]4C)n3)CC2)CC1 | ACVR1 (Homo sapiens, UniProt Q04771) | KINOMEscan | – | 1 µM | – | remaining binding | 99% |
| C[C@H](N)C(=O)Nc1ccc2ccccc2c1 | rat aminopeptidase III | substrate | – | – | – | Km | 10 µM |
| Cc1cc(Nc2ccc(C(C)(C)C)c(F)c2)n2ncnc2n1 | pyrD | enzyme activity, inhibitor, colorimetric HTS, measured: DCIP reduction | – | 3 µM | direction not given | robust Z-score | 23.4 |
| CCc1nn(CCCN2CCN(c3cccc(Cl)c3)CC2)c(=O)n1CCOc1ccccc1 | SLC6A3 (Homo sapiens, UniProt Q01959) | [3H]dopamine uptake, inhibitor, uptake kinetics | – | 0.5 µM | baseline: control | Vmax | decreased |
| CC[C@@H](C)[C@@H](NC(=O)[C@@H](Cc1ccc(O)cc1)NC(=O)[C@H]1CCCN1C(=O)[C@@H](CCCNC(=N)N)NC(=O)[C@H](N)Cc1c[nH]cn1)C(=O)N[C@H](C)C(=O)N[C@H](Cc1c[nH]cn1)C(=O)N[C@H](CCCNC(=N)N)C(=O)N[C@@H](C(=O)N[C@H](Cc1ccc(O)cc1)C(=O)N[C@H](CO)C(=O)N[C@H](Cc1ccccc1)C(N)=O)C(C)C | Transferrin receptor protein 1 (Tfrc, Mus musculus, UniProt Q62351) | flow cytometry | DC2.4 | 6 h, pH 6, unit not given | baseline: 0 h | surface TFRC expression | 0.965 and 0.926 |
| NCCCC(=O)O | SLC6A6 (Homo sapiens, UniProt P31641, L306A) | binding, microscale thermophoresis | – | 31.3 µM, room temperature, added: 50 nM labelled protein | higher = more binding | normalised MST signal | 0.00394 |
| O=c1nc(SCc2cc(F)cc(C(F)(F)F)c2)nc(SCc2ccc3sccc3c2)[nH]1 | TOP2A (Homo sapiens, UniProt P11388) | ATPase activity | – | 3.9 µM, added: ATP 2 mM | – | ATP hydrolysis rate | 1.84 µM/min and 1.98 µM/min |
| CC1=C(/C=C/C(C)=C/C=C/C(C)=C/C=O)C(C)(C)CCC1 | Rhodopsin (RHO, Bos taurus, UniProt P02699, G270S) | retinal entry, Trp FRET | lipid bicelles | 28 °C, G270S mutant | baseline: wild-type rhodopsin | relative kon | 1 ± 0.13 |
| N[C@@H](Cc1ccc(O)cc1)C(=O)O | – | binding, MIDAS equilibrium dialysis LC-MS | A2AR-BRIL thermostabilized | concentration not given | baseline: no-protein control | log2 fold change | -0.0104 |
| Nc1ncnc2c1ncn2[C@@H]1O[C@H](COP(=O)(O)OP(=O)(O)O)[C@@H](O)[C@H]1O | GUK1 | ITC | – | molar ratio 2.17 | – | ΔH | -0.354 kcal/mol |
| Nc1nc(=O)n([C@H]2C[C@H](O)[C@@H](CO)O2)cc1CCCNC[C@H]1O[C@@H](n2cnc3c(N)ncnc32)[C@H](O)[C@@H]1O | DNMT1 (Homo sapiens, UniProt P26358) | radiometric [3H]-SAM | – | concentration not given, added: SAM, poly(dI-dC) | – | inhibition type | inhibited |
| Nc1nc2c(ncn2[C@H]2C[C@H](O)[C@@H](CO)O2)c(=O)[nH]1 | T3, riboswitch RNA C63G (Bacillus) | ITC | – | KCl 50 mM | – | binding | no binding |
| CC[C@H](C)[C@H](NC(=O)[C@H](CCC(=O)O)NC(=O)[C@H](C)NC(=O)[C@@H](NC(=O)[C@H](Cc1c[nH]cn1)NC(=O)[C@H]1CCC[C@@H]1NC(=O)[C@H](CCC(=O)O)NC(=O)[C@H](C)NC(=O)[C@H]1CCC[C@@H]1NC(=O)[C@H](CC(C)C)NC(=O)[C@H](Cc1c[nH]cn1)NC(=O)[C@H](Cc1c[nH]cn1)NC(=O)[C@H]1CCC[C@@H]1NC(=O)[C@H](Cc1ccccc1)NC(=O)[C@H](Cc1ccccc1)NC(=O)[C@H](CCCNC(=N)N)NC(=O)[C@H](CCCNC(=N)N)NC(=O)[C@H](CCCNC(=N)N)NC(=O)[C@H]1CCC[C@@H]1NC(=O)[C@H](CC(=O)O)NC(=O)[C@H](CCC(N)=O)NC(=O)[C@@H](NC(=O)C[C@H](Cc1c[nH]c2ccccc12)NC(=O)[C@H](CCCCN)NC(=O)[C@@H](Cc1c[nH]c2ccccc12)NC(=O)[C@H](CC(C)C)NC(=O)[C@H](CC(=O)O)NC(=O)[C@H](Cc1c[nH]cn1)NC(=O)[C@H](CC(C)C)NC(=O)C[C@@H](N)CC(C)C)[C@@H](C)CC)[C@@H](C)O)C(N)=O | PTH1R (Homo sapiens, UniProt Q03431) | antagonist, GloSensor cAMP | HEK293 expressing PTH1R | concentration not given, added: PTH(1-34) | – | cAMP formation | decreased |
| O=C(O)[C@@H]1CCCN1c1ncnc2[nH]cnc12 (racemic) | Protein transport protein Sec31A (SEC31A, Homo sapiens, UniProt O94979) | binding, affinity selection mass spectrometry | – | – | baseline: other proteins in batch | fold enrichment | 0.963 |
| CCc1nc2nc(C)cc(Nc3ccc(C(F)(F)F)c(F)c3)n2n1 | pyrD | enzyme activity, inhibitor, colorimetric HTS, measured: DCIP reduction | – | 3 µM | direction not given | robust Z-score | 16.5 |
| C[C@]12C[C@H](O)[C@H]3[C@@H](CCC4=CC(=O)CC[C@@]43C)[C@@H]1CC[C@@H]2C(=O)CO | CYP11B1 (Homo sapiens, UniProt P15538) | – | nanodiscs | 25 °C, fast phase | – | koff | 19 ± 5 s⁻¹ |
| N[C@@H](Cc1ccc(O)cc1)C(=O)Nc1ccc2ccccc2c1 | rat aminopeptidase III | substrate | – | – | – | Km | 7.7 µM |
